Results of several laboratories.
Protocols differ between the studies behind these lines. Numbers after ± are the reported error.
Cell line: K562

COc1cccc2c1C(=O)c1c(O)c3c(c(O)c1C2=O)C[C@@](O)(C(=O)CO)C[C@@H]3O[C@H]1C[C@H](N)[C@H](O)[C@H](C)O1 has a growth inhibition of 78% (CellTiter-Blue; 10 µM, 48 h).
CC(C)C[C@H](NC(=O)[C@H](CCCCN)NC(=O)[C@H](CS)NC(=O)[C@H](CC(C)C)NC(=O)[C@@H](NC(=O)[C@@H](NC(=O)[C@H](CO)NC(=O)[C@H](Cc1ccccc1)NC(=O)[C@@H]1CCCN1C(=O)[C@H](Cc1c[nH]c2ccccc12)NC(=O)[C@H](Cc1c[nH]cn1)NC(=O)[C@H](CC(=O)O)NC(=O)CNC(=O)[C@H](CCCNC(=N)N)NC(=O)[C@H](C)NC(=O)[C@@H](N)Cc1ccc(O)cc1)[C@@H](C)O)C(C)C)C(=O)N[C@H](C(=O)N[C@@H](CCCNC(=N)N)C(=O)O)C(C)C has an IC50 of 30 ± 15 µM (cell adhesion; 15 min preincubation, together with: P2Y2 93-110 peptide beads).
For COc1cc(C(=O)c2oc3c(OC)cccc3c2N)cc(OC)c1OC, the IC50 was 0.725 µM (cell growth or viability).
The IC50 of CC[C@H](C)[C@H](NC(=O)[C@@H](N)Cc1ccccc1)C(=O)NCC(=O)N[C@H](C(=O)N[C@@H](CC(C)C)C(=O)N[C@H](C(=O)N1CCC[C@H]1C(=O)N[C@@H](CC(C)C)C(=O)N[C@@H](C)C(=O)N[C@@H](CC(C)C)C(=O)NCC(=O)N[C@@H](C)C(=O)N[C@@H](CC(C)C)C(=O)N[C@H](C(=O)N[C@@H](CCCCN)C(=O)N[C@@H](CC(C)C)C(=O)N[C@@H](Cc1ccccc1)C(=O)N[C@@H](CCCCN)C(N)=O)[C@@H](C)O)[C@@H](C)CC)[C@@H](C)O is reported as 8.18 µM (cell growth or viability, CCK-8; 24 h).
N.N.[Cl][Pt][Cl] gave an IC50 of 5.77 µM (cell growth or viability, resazurin).
C[C@H]1[C@H](OC(=O)CCC(=O)O)O[C@@H]2O[C@@]3(C)CC[C@H]4[C@H](C)CC[C@@H]1[C@@]24OO3 has an inhibition of 49.2% (cell growth or viability, resazurin; 10 µM, 48 h).
The IC50 of COc1cc(C(=O)c2oc3ccccc3c2N)cc(OC)c1OC is reported as 8.29 µM (cell growth or viability).
With N.N.[Cl][Pt][Cl] the IC50 was 9.7 µM (cell growth or viability, MTT; 72 h).
With CC[C@@]1(O)C(=O)OCc2c1cc1n(c2=O)Cc2cc3ccccc3nc2-1 the IC50 was 0.08 µM (cell growth or viability, MTT; 48 h).

Some of these lines once more:
The IC50 of CC[C@H](C)[C@H](NC(=O)[C@@H](N)Cc1ccccc1)C(=O)NCC(=O)N[C@H](C(=O)N[C@@H](CC(C)C)C(=O)N[C@H](C(=O)N1CCC[C@H]1C(=O)N[C@@H](CC(C)C)C(=O)N[C@@H](C)C(=O)N[C@@H](CC(C)C)C(=O)NCC(=O)N[C@@H](C)C(=O)N[C@@H](CC(C)C)C(=O)N[C@H](C(=O)N[C@@H](CCCCN)C(=O)N[C@@H](CC(C)C)C(=O)N[C@@H](Cc1ccccc1)C(=O)N[C@@H](CCCCN)C(N)=O)[C@@H](C)O)[C@@H](C)CC)[C@@H](C)O is reported as 8.18 µM (cell growth or viability, CCK-8; 24 h).
